Published values gathered from unrelated publications.
Lines come from different studies, so protocols differ. ± marks the error that the study gave. ≈ marks a conversion by molar mass, not a printed value.

Under “target to normal ratio”, N#Cc1cc(C(=O)OCC[18F])c(C(F)(F)F)nc1N1CCN(C(=O)Cc2ccccc2)CC1 is recorded as 1.47 ± 0.01 (PET; mouse, orthotopic GL261 glioma, brain tumour).
C[C@@H](N)C1CCN(S(=O)(=O)c2cccc3cnccc23)CC1 — result for “hemorrhagic transformation incidence”: 25% (spontaneously hypertensive rat, transient MCAO; intraperitoneal, 10 mg/kg, 7.5 h after reperfusion).
C[C@H]1CN(C(=O)c2cn(-c3ccnc(N)n3)c3cc(C#CC4(O)CCCCC4)ccc23)CCN1 — result for tumour proliferation: “no effect” (A549 xenograft, zebrafish embryo; dose not given, 48 h).
Under “latency of nociceptive response”, COc1ccc2c(c1)c(CC(=O)OCC(=O)c1ccccc1)c(C)n2C(=O)c1ccc(Cl)cc1 is recorded as 15.5 ± 1.39 s (hot plate test; BALB/c mice; 75 mg/kg, 120 min).
The EC50 of CC(C)(O)c1ncc([S@](N)(=O)=NC(=O)Nc2c3c(cc4c2CCC4)CCC3)s1 is reported as 0.059 µg/mL (≈ 0.14 µM) (IL-1β release; healthy humans, whole blood ex vivo; plasma concentration, together with: LPS).
With CCCCCCCCCC(=O)OCc1cn(-c2ccc(Cl)cc2)nn1 the clotting time was 16.4 ± 2 s (prothrombin time; human plasma; 1 µM).
With NS(=O)(=O)c1ccc(NC(=O)NN[C@@H]2O[C@H](CO)[C@@H](O)[C@H](O)[C@H]2O)cc1 the IOP reduction was roughly 7 mm Hg (rabbit glaucoma model; topical ocular, 2%, 2 h).
For CC/C=C\C/C=C\C/C=C\C/C=C\C/C=C\CCCCOC(CC)C(=O)O (stereo not drawn), “plasma insulin change” read -76% (ob/ob mice; dose not given, 4 weeks; relative to: control).
C=C(c1ncc(C(=O)O)cn1)c1cc2c(cc1C)C(C)(C)CCC2(C)C: “log2 fold change” -0.44 (RNA sequencing, refers to: Pdk4; rat, brain; dose not given, 24 h; relative to: vehicle).
CC[C@H]1[C@@H](O)[C@@H]2[C@H](CC[C@]3(C)[C@@H]([C@H](C)CCOS(=O)(=O)[O-])CC[C@@H]23)[C@@]2(C)CC[C@@H](O)C[C@@H]12.[Na+] — result for “plasma total cholesterol”: 9.2 ± 0.3 mmol/L (ob/ob NASH mice, plasma; oral, 3 mg/kg once daily, 8 wk).
Under “inhibition of writhing”, O=C1CCN(Cc2ccccc2)CC1C(C[N+](=O)[O-])c1ccccc1 (stereo not drawn) is recorded as 48.7% (Balb/c mice, acetic acid writhing; 50 mg/kg).
The clotting time of COc1ccc(-n2cc(CO)nn2)cc1 is reported as 189 ± 3 s (plasma recalcification time; human plasma; 10 µM).
COc1ccc(C2CC(c3ccc(C)cc3)=Nc3ccccc3S2)cc1OC (stereo not drawn) has a blood glucose of 381 ± 4.21 mg/dL (Wistar rat, STZ-induced diabetes; oral, 20 mg/kg once daily, day 1).
The clotting time of OCc1cnn(-c2ccccc2)n1 is reported as 15.4 ± 0.8 s (prothrombin time; human plasma; 10 µM).
N[C@@H](Cc1ccccc1)C(=O)N[C@@H](CO)C(=O)N[C@@H](CO)C(=O)N[C@@H](CCC(=O)O)C(=O)O: “serum ALT and AST” “decreased” (C57BL/6 mice, acetaminophen liver injury; intraperitoneal, 50 or 500 µg/mouse, 24 h, together with: acetaminophen 400 mg/kg; relative to: control peptide).
C[C@H](NC(=O)COC(=O)[C@H](C)NC(=O)CO)C(=O)O: “depolymerization rate constant” 0.249 h⁻¹ (water; pH 6, 25 °C).
For Cc1ccc(C(=O)Nc2ccc(CP(=O)(O)O)cc2CP(=O)(O)O)cc1NC(=O)c1cccc(NC(=O)Nc2cccc(C(=O)Nc3cc(C(=O)Nc4ccc(CP(=O)(O)O)cc4CP(=O)(O)O)ccc3C)c2)c1, “clotting time ratio” read 1.04 to 1.94 fold (aPTT; FXI-deficient human plasma; 233 to 467 µM, together with: 2.4 nM factor XIa; relative to: untreated).
O=C(O)Cc1ccccc1Nc1c(Cl)cccc1Cl gave an inhibition of 94.3% (paw edema; rat carrageenan paw edema; oral, 12.5 mg/kg, 4 h; relative to: vehicle).
The tumour shrinkage of C=CC(=O)Nc1cc(Nc2nccc(-n3ccc4nc(OC)ccc43)n2)c(OC)cc1N(C)CCN(C)C is reported as 33.7% (human; 20 mg/day, 17 weeks).
O/N=C/c1cnn(-c2ccccc2)n1 has a clotting time of 337 ± 36 s (plasma recalcification time; human plasma; 10 µM).
Under “tumour growth inhibition”, C=C1C(=O)OC2C1CCC1(C)OC13CC1OC1(C)C23 (single isomer, unassigned) is recorded as 59 to 88% (breast cancer RMK-1, outbred white rat; intraperitoneal, maximum tolerated dose, daily, 5 days).
CC(C)[C@H](NC(=O)CN)C(=O)N[C@@H](CCCCN)C(=O)NCC(=O)N[C@@H](CC(=O)O)C(=O)N[C@@H](CCCCN)C(=O)NCC(=O)N[C@@H](CC(N)=O)C(=O)N1CCC[C@H]1C(=O)NCC(=O)N[C@@H](Cc1c[nH]c2ccccc12)C(=O)N1CCC[C@H]1C(=O)NCC(=O)N[C@@H](C)C(=O)N1CCC[C@H]1C(=O)O: “maximal cell adhesion” greater than 50% (K1735 M4 melanoma, mouse; 100 µg/mL coating, peptide-coated plates; relative to: input cells).
Under “paw edema inhibition”, O=S(=O)(c1ccccc1)N(CCc1nnc(S)o1)c1ccccc1 is recorded as 19.4% (rat; 100 mg/kg, 1 h, together with: carrageenan).
Cc1cc(O)c(C=O)c2c1C(=O)Oc1c(CO)c(O)c3c(c1O2)C(O)OC3=O (stereo not drawn): “seminiferous epithelium height” 56.2 ± 3.36 µm (histopathology; rat, male, streptozotocin-induced diabetes, testis; 5 mg/kg, 9 weeks).
Cc1cc(Nc2cc3ncccc3c(N[C@@H]3C[C@H]4CC[C@@H](C3)N4CCC#N)n2)n[nH]1 has an endoscopic improvement of 30% (moderate-severe ulcerative colitis patients; 80 mg, day 28; relative to: patients).
CSc1cc(C)[nH]c(=O)c1CN1CCc2c(Cl)c3c(c(C)c2C1=O)OC(C)(C1CCC(N(C)C)CC1)O3 (stereo not drawn) — result for “time to tumour regression”: roughly 12 days (mouse, KARPAS-422 xenograft; oral, 10 mg/kg once daily).
Under “tumour weight inhibition”, CC(C)OC(=O)[C@H](CO)NCc1cc(Cl)c(OCc2cccc(-c3ccccc3)c2Br)cc1OCc1cccnc1 is recorded as 40.5% (hPD-L1 MC-38 tumour, humanised hPD-1 C57BL/6 mouse; oral, 2.5 mg/kg × 21).
For CCCCOCc1cn(-c2cc(Cl)ccc2Cl)nn1, the clotting time was 15.8 ± 1 s (prothrombin time; human plasma; 1 µM).
For COc1ccc2nc3ccc(OC)cc3c(SCCCN)c2c1, “trabecular bone volume fraction” read “increased” (MPC-11, BALB/c mouse myeloma allograft, femur; intraperitoneal, 50 mg/kg thrice weekly; relative to: vehicle).
For COc1c2c(cc3oc(CO)cc(=O)c13)O[C@H](C(C)(C)O)C2, “hot plate latency” read 11.5 ± 0.6 s (analgesic effect; mouse; oral, 1 mg/kg, 1 h).
Under IL-1β level, CCc1nnc(NS(=O)(=O)c2ccc(NC(=S)NC(=O)/C=C/c3ccc(F)cc3)cc2)s1 is recorded as “decreased” (immunostaining; athymic nude mouse, BE(2)-C xenograft, tumour; ip, 20 mg/kg daily, 3 weeks).
For CCC1CC2C(C)=CC3C(=O)CCCC3C=CC(C)=CC2C(=O)O1 (stereo not drawn), “total soluble Aβ reduction” read 27.4% (dot blot; 5XFAD transgenic mouse, cortex RIPA-soluble lysate; oral gavage, 30 mg/kg/day, 5 days; relative to: vehicle).
O=[N+]([O-])c1cccc(S(=O)(=O)NC[C@@H](O)[C@@H]2CCc3cc(F)ccc3O2)c1 gave a paw volume of 0.77 ± 0.28 mL (rat, carrageenan paw oedema; oral, 100 mg/kg, 3 h after carrageenan).
S=c1n(CN2CCN(c3ccccc3)CC2)nc(C23CC4CC(CC(C4)C2)C3)n1-c1ccccc1 — result for “paw oedema inhibition”: 22.5 ± 5.25% (rat carrageenan paw oedema; intraperitoneal, 20 mg/kg, 4 h after carrageenan; relative to: vehicle control).
C=C(c1cc(F)c(C(=O)O)c(F)c1)c1cc2c(cc1C)C(C)(C)CCC2(C)C: “log2 fold change” 0.44 (RNA sequencing, refers to: Nmu; rat, brain; dose not given, 24 h; relative to: vehicle).
For COc1ccc2c(c1)c(CC(=O)OCC(=O)OC(C)(C)C)c(C)n2C(=O)c1ccc(Cl)cc1, “latency of nociceptive response” read 16.9 ± 1.4 s (hot plate test; BALB/c mice; 100 mg/kg, 90 min).
With Nn1c(S)nnc1CCN(c1ccc(Cl)cc1)S(=O)(=O)c1ccccc1 the inhibition was 51.4% (paw oedema; rat carrageenan oedema; 200 mg/kg, 3 h).
C=C(c1ccc(C(=O)O)c(F)c1)c1cc2c(cc1C)C(C)(C)C=CC2(C)C — result for “log2 fold change”: 0.15 (RNA sequencing, refers to: Cyp26a1 mRNA; rat, brain; dose not given, 24 h, single dose; relative to: vehicle).
CC(CCC(=O)NCc1ccc(C(=O)NO)cc1)C1CCC2C3C(O)CC4CC(O)CCC4(C)C3CCC12C (stereo not drawn) — result for kidney weight: “decreased” (PCK rats; oral gavage, 15 mg/kg/day, 5 months; relative to: untreated).
C=C1C[C@@]23CC[C@H]4[C@@](C)(CCC[C@@]4(C)C(=O)O[C@@H]4O[C@H](CO)[C@@H](O)[C@H](O)[C@H]4O)[C@@H]2CC[C@]1(O[C@@H]1O[C@H](CO[C@H]2O[C@H](CO)[C@@H](O)[C@H](O)[C@H]2O)[C@@H](O)[C@H](O)[C@H]1O[C@@H]1O[C@H](CO)[C@@H](O)[C@H](O)[C@H]1O)C3 — result for glucose tolerance: “no effect” (C57BL/6N mouse, high-fat diet; dose not given, week 13, together with: 2 g/kg glucose ip).
With C[C@H](CC(=O)C[C@@H](C)[C@H]1C[C@H](O)[C@@]2(C)C3=C(C(=O)C[C@]12C)[C@@]1(C)CCC(=O)C(C)(C)[C@@H]1C[C@@H]3O)C(=O)O the hexokinase activity was 10.1 ± 0.63 U/mg tissue (mouse, STZ-induced type 1 diabetes, liver; dose not given).
The ED50 of CC(=O)c1cnc(N)nc1N1CC[C@H]1c1nn2ccc(Cl)c2c(=O)n1-c1ccccc1 is reported as roughly 0.14 mg/kg (B cell activation, inhibitor, refers to: CD86; female Wistar rat, blood; oral, 2 h, together with: anti-IgD).

A few entries again:
CC(CCC(=O)NCc1ccc(C(=O)NO)cc1)C1CCC2C3C(O)CC4CC(O)CCC4(C)C3CCC12C (stereo not drawn) — result for kidney weight: “decreased” (PCK rats; oral gavage, 15 mg/kg/day, 5 months; relative to: untreated).
Under “tumour growth inhibition”, C=C1C(=O)OC2C1CCC1(C)OC13CC1OC1(C)C23 (single isomer, unassigned) is recorded as 59 to 88% (breast cancer RMK-1, outbred white rat; intraperitoneal, maximum tolerated dose, daily, 5 days).
